Measurements collected from several papers.
Every numbered part comes from another study and shows a few of its results, in no order.
UniProt P28335, sequence (whole entry, looked up): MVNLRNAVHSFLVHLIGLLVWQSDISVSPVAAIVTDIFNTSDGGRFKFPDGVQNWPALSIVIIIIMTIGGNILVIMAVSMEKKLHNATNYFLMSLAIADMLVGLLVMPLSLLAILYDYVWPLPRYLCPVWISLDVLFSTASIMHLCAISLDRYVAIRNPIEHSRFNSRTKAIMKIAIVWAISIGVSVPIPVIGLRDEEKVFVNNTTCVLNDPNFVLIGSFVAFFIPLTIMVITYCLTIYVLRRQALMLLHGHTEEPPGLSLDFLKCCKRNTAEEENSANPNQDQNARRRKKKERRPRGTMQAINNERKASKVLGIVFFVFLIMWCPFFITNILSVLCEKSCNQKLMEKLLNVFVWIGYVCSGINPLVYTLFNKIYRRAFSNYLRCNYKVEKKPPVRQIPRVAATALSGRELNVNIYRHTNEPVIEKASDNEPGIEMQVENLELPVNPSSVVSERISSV
UniProt O43293, sequence (whole entry, looked up): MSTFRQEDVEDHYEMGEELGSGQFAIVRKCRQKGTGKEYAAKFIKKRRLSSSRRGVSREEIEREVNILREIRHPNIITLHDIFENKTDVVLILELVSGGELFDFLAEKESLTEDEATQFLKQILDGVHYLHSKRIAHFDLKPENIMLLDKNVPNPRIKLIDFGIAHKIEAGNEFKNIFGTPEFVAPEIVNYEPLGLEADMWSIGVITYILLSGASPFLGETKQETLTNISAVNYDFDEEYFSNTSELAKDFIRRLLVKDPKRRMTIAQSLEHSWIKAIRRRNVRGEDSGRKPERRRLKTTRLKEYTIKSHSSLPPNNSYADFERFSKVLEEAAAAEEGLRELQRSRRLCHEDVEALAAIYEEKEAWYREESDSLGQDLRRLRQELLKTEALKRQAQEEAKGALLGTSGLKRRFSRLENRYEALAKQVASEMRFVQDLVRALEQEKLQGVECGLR
UniProt P41143, sequence (whole entry, looked up): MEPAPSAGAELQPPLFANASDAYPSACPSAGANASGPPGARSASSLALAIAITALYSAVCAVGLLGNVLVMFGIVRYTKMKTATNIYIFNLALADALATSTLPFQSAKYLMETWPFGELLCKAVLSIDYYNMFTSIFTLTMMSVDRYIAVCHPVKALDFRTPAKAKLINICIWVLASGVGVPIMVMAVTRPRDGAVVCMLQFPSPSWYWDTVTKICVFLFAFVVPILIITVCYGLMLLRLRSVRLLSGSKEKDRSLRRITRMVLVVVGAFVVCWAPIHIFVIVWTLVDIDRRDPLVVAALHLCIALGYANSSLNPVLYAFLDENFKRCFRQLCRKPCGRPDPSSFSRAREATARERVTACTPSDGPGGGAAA
UniProt P21709, sequence (whole entry, looked up): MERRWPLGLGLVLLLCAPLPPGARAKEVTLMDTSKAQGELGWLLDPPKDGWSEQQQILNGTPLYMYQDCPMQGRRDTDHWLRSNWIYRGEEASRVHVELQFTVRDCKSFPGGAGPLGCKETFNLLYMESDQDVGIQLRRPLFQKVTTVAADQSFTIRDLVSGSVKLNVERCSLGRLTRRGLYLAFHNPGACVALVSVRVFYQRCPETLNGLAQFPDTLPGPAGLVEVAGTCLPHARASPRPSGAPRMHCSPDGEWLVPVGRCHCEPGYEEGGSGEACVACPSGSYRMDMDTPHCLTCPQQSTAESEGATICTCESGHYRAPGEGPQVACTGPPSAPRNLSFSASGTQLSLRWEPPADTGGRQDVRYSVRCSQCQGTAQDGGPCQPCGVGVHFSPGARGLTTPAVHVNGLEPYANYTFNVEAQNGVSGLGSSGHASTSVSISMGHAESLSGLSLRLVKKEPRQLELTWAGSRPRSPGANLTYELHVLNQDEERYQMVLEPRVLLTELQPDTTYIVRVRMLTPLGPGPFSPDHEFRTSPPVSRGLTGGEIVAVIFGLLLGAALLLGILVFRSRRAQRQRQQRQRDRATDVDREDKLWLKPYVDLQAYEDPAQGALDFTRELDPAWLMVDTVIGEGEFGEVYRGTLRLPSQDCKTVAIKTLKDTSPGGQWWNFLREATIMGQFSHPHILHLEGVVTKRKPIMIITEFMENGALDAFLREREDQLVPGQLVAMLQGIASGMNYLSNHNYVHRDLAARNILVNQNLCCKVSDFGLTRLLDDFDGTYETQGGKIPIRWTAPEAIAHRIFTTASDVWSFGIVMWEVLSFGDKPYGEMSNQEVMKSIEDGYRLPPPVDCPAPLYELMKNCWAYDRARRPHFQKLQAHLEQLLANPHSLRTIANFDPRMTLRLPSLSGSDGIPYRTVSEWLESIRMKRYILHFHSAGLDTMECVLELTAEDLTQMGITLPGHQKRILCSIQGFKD
UniProt Q96KB5, sequence (whole entry, looked up): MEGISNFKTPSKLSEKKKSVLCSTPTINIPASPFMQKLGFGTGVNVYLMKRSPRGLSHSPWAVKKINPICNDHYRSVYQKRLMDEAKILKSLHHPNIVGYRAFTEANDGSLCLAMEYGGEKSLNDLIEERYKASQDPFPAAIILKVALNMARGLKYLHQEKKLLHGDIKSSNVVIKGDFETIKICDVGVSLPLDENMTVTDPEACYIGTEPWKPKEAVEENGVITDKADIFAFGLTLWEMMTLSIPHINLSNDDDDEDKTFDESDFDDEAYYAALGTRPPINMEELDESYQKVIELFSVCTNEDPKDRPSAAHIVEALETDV
UniProt Q9H093, sequence (whole entry, looked up): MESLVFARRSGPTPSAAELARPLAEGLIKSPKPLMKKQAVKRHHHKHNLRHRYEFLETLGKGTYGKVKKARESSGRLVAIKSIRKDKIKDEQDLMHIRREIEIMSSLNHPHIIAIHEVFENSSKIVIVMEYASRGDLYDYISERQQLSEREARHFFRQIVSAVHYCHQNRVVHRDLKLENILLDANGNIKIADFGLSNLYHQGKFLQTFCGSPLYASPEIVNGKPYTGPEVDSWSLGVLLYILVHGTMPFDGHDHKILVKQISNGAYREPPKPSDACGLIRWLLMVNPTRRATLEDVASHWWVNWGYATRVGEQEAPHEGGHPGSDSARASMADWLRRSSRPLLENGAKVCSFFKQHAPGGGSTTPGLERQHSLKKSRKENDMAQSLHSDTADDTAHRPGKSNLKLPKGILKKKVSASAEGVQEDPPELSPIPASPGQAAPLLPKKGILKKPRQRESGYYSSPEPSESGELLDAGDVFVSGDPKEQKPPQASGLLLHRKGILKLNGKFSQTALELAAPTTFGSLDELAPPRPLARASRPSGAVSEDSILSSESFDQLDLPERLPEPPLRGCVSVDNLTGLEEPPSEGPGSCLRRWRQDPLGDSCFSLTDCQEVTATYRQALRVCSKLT
UniProt P28223, sequence (whole entry, looked up): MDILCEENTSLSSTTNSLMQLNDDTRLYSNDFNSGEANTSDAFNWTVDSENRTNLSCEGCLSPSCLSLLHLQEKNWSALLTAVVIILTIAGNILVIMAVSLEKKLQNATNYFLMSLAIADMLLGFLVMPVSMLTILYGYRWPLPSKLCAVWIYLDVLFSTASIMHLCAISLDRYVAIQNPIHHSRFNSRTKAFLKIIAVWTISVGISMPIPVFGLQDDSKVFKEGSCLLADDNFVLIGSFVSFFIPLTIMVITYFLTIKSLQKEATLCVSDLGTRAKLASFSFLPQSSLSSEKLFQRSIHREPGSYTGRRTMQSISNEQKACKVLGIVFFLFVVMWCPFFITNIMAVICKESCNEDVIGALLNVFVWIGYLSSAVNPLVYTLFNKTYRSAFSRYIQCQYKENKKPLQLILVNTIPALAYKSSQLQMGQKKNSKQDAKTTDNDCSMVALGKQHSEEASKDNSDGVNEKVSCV

Sample 1
Target: CRBN/Zinc finger protein Helios (Homo sapiens, UniProt Q96SW2+Q9UKS7)
UniProt Q96SW2, sequence (whole entry, looked up): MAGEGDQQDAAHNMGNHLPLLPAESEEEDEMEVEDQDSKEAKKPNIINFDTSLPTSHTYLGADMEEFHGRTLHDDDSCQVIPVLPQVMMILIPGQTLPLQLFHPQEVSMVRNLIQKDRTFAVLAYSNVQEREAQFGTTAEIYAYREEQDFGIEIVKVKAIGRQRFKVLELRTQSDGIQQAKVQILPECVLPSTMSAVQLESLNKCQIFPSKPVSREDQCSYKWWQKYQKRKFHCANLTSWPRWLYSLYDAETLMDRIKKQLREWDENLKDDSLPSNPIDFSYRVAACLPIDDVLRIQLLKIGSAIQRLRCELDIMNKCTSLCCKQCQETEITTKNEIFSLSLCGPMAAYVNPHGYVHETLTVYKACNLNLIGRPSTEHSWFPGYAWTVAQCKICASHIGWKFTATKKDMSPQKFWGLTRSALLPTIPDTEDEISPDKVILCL
UniProt Q9UKS7, sequence (whole entry, looked up): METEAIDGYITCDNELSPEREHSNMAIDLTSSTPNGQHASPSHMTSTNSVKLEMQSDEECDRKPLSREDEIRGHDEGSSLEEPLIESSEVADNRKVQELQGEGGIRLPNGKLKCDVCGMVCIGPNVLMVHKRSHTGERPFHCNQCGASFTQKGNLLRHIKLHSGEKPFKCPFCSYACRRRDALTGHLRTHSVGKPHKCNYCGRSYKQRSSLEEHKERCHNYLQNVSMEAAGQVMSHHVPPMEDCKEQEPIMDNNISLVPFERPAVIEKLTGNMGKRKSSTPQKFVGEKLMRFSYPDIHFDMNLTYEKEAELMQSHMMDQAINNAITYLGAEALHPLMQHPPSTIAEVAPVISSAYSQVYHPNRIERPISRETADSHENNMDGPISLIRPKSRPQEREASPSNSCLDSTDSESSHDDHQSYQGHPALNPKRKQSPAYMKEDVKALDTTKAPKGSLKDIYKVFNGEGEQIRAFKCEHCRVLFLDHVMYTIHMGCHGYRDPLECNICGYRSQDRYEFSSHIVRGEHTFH
Action: degrader
Technique: HiBiT
Cell line: HEK293
Concentration: 0.5081 nM
Measurement: protein remaining
Structure (SMILES) = O=C1CCC(N2Cc3c(ccc4c3OCC43CCCN(Cc4ccccc4)CC3)C2=O)C(=O)N1 (centres unmarked); result = 92.9%
Structure (SMILES) = O=C1CCC(N2Cc3c(ccc4c3OCC43CCN(Cc4ccccc4)C3)C2=O)C(=O)N1 (centres unmarked); result = 96.9%
Structure (SMILES) = O=C1CCC(N2Cc3c(ccc4c3OCC43CCN(CC4CCCCC4)CC3)C2=O)C(=O)N1 (centres unmarked); result = 101%
Structure (SMILES) = O=C1CCC(N2Cc3c(ccc4c3OCC43CCN(Cc4ccccn4)CC3)C2=O)C(=O)N1 (centres unmarked); result = 97.8%
Structure (SMILES) = O=C1CCC(N2Cc3c(ccc4c3OCC43CCN(Cc4ccccc4)CC3(F)F)C2=O)C(=O)N1 (centres unmarked); result = 98.7%
Structure (SMILES) = O=C1CCC(N2Cc3c(ccc4c3OCC43CCN(Cc4ccsc4)CC3)C2=O)C(=O)N1 (centres unmarked); result = 94.6%

Sample 2
Structure (SMILES): CNC(=O)c1ccc(-c2cnn3ccc(C(=O)N(C)c4ccc(Cl)c(C(=O)OC)c4)cc23)cc1
Target: Phosphatidylinositol 4-kinase (Cryptosporidium parvum, UniProt Q5CVD3)
Observed: enzyme activity
Action: inhibitor
Technique: ADP-Glo
Measurement: inhibition
Residues (Q5CVD3 1-1114): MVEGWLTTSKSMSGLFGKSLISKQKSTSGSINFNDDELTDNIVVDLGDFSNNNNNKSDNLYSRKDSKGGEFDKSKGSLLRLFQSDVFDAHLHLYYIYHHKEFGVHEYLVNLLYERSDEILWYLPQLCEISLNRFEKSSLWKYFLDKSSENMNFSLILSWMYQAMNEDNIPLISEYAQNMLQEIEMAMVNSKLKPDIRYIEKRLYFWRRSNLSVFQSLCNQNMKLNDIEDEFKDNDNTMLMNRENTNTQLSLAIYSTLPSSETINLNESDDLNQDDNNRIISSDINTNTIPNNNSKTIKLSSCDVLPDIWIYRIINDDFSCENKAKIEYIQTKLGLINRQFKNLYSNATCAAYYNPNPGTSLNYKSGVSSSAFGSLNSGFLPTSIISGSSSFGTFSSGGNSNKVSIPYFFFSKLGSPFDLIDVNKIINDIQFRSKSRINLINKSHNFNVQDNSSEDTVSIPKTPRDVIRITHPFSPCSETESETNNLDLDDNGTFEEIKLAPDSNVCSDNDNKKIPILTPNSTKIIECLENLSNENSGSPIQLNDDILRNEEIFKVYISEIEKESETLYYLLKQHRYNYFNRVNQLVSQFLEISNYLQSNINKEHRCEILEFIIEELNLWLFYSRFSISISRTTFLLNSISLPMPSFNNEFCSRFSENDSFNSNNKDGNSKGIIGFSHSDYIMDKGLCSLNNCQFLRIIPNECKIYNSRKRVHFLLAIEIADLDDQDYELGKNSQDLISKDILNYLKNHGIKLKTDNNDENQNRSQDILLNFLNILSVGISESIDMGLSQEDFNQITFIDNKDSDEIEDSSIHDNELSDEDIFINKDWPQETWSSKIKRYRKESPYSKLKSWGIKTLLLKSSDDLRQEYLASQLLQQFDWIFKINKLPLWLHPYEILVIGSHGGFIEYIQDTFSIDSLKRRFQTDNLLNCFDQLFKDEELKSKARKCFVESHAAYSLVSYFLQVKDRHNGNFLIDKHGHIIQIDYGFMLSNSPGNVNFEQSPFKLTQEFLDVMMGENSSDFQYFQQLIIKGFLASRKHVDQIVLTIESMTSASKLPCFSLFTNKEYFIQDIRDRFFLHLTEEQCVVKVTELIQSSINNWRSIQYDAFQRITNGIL
conditions = 0.02 µM; result = 101%
conditions = 0.000247 µM; result = 99.8%
conditions = 0.000741 µM; result = 101%
conditions = 3.05e-06 µM; result = 41.4%

Sample 3
Compound: CCn1cnc2c(Nc3cccc(Cl)c3)nc(N[C@H]3CCCC[C@H]3N)nc21
Observed: enzyme activity
Action: inhibitor
Concentration: 0.5 µM
Reference: control
Measurement: remaining activity
target = Death-associated protein kinase 3 (DAPK3, Homo sapiens, UniProt O43293); result = 105%
target = Lymphokine-activated killer T-cell-originated protein kinase (PBK, Homo sapiens, UniProt Q96KB5); result = 105%
target = Serine/threonine-protein kinase 26 (STK26, Homo sapiens, UniProt Q9P289); result = 104%
target = NUAK family SNF1-like kinase 2 (NUAK2, Homo sapiens, UniProt Q9H093); result = 93.7%
target = Serine/threonine-protein kinase 24 (STK24, Homo sapiens, UniProt Q9Y6E0); result = 79%
target = Ephrin type-A receptor 1 (EPHA1, Homo sapiens, UniProt P21709); result = 79.6%

Sample 4
SMILES: CCCCN(CCCC)C(=O)CN1C[C@H](c2cc(OC)c3c(c2)OCO3)[C@@H](C(=O)O)[C@@H]1CC(C)(C)CCC
Observed: binding
Technique: radioligand binding
Concentration: 10 µM
Measurement: inhibition
target = 5-hydroxytryptamine receptor 2A (HTR2A, Homo sapiens, UniProt P28223); result = 8.83%
target = Muscarinic acetylcholine receptor M1 (CHRM1, Homo sapiens, UniProt P11229); result = -19.4%
target = 5-hydroxytryptamine receptor 2C (HTR2C, Homo sapiens, UniProt P28335); result = -18.7%
target = Delta-type opioid receptor (OPRD1, Homo sapiens, UniProt P41143); result = 25.6%

Excerpt of the above (sample 1):
Structure (SMILES) = O=C1CCC(N2Cc3c(ccc4c3OCC43CCN(CC4CCCCC4)CC3)C2=O)C(=O)N1 (centres unmarked); result = 101%
